Measured values pooled from the literature.
Each numbered part is a random draw from the data of one study; scales do not carry over between parts. Positions count from the first letter of the parent shown.

Block 1 — technique: DHFR PCA, deep sequencing; medium: yeast; added: (+)-ABA 0.0091 µM; baseline: wild-type fitted maximum; reading: higher = stronger binding
Target: ABI1, truncated, D143A, DHFR fusion (Arabidopsis thaliana)
Notes: methotrexate growth selection, single substitutions
Starting sequence: PYL1, truncated, DHFR fusion (Arabidopsis thaliana); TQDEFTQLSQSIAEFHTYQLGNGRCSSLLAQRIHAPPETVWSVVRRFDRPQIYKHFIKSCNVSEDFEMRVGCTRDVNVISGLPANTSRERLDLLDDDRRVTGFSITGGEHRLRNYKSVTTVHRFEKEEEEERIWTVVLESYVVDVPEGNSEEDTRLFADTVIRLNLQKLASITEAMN
For `N165Y`, “relative binding score” read 0.84%.
`P36N`: “relative binding score” 17.8%.
For `Q10Y`, “relative binding score” read 5.47%.
Under “relative binding score”, `R88V` is recorded as 33.1%.
For `V76I`, “relative binding score” read 43.8%.
Under “relative binding score”, `Q31V` is recorded as 1.31%.
Under “relative binding score”, `E89N` is recorded as -13.5%.
`E131Q`: “relative binding score” 55.2%.
`N114H`: “relative binding score” -2.66%.
`E128C` — result for “relative binding score”: 32.2%.
`D95N`: “relative binding score” 5.47%.
Under “relative binding score”, `R123C` is recorded as 3.01%.
Under “relative binding score”, `G107W` is recorded as -2.98%.
Under “relative binding score”, `G107F` is recorded as -8.21%.
For `R113E`, “relative binding score” read -3.18%.

Block 2 — technique: RNA Bind-n-Seq; molecule type: RNA; medium: in vitro; concentration: not given; baseline: input RNA pool; reading: higher = stronger binding
Target: RING finger protein unkempt homolog, zinc fingers 1-6, GST-SBP tag (UNK, Homo sapiens, UniProt Q9C0B0, residues 30-357)
Sequence of UniProt Q9C0B0 (30-357, looked up): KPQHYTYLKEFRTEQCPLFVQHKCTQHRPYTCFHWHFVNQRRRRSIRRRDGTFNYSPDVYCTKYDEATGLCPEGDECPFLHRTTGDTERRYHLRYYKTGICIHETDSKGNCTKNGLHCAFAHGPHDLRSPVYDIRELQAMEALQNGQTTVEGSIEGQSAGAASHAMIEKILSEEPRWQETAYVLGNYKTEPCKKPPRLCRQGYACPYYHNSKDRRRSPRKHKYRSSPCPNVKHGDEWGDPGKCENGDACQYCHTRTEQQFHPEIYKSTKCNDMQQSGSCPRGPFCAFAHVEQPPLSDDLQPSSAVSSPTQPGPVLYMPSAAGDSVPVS
Notes: RNA with constant flanks, human and mouse sites, ends assumed
`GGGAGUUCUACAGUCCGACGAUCUGGGAUGAAAAUCUAAAAGAUGAUUCUCUUCCUUCAAAUCCAAUAGAUUUUUCUUACAGAGUAGCUGCUUGUCUUCCUAUUGAUGAUGUAUUGAGAAUUCAGCUCCUUAAAAUUGGCAGUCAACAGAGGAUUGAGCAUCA` has a bound/input enrichment of 1.01 ratio.
The bound/input enrichment of `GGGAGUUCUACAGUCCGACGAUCAAUUUGUUGUCAGCAAGCAAAUUAUAUAACAAUAUCACCUUUGAAGAACUUGGAGCUCUUUUAGAGAUCCCUGCAGCUAAGGCAGAAAAGAUAGCAUCUCAGAUGAUAACGGAAGGACGCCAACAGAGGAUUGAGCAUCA` is reported as 0.716 ratio.
With `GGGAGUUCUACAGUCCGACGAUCCCCCUUCAAGAGAUUCUCGUUUUUCAAAGAUGUGUAUAUCCUUUUAUCACUCACAAGUGGUAGCAUGUCAGAUGCUUCCCCCACCCCCACUGCUUUAUGUAAUAUGUCAUGGGCAUUUCGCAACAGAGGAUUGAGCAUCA` the bound/input enrichment was 0.375 ratio.
`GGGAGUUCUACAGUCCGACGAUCAACAAUAUCAAGGAAGUACUUCUGUUUCCUGCCAUGAAGCCAGAGGACAAGAAGGAAACUGCAGCGACCACUGAAACCCCAGAGAGCACAGAGGCCAGCCCCUCUGUCUAGAAGGCACAUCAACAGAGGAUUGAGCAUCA` gave a bound/input enrichment of 0.117 ratio.
The bound/input enrichment of `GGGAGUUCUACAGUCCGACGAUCAACACUAAUGAGAGAUCAUGAUGCAGCCGCCCUUUUGGAUUUCUUUUUAAUAAUGUGUGACCCUUCACCUUUGAUCCCCUGACCUGCAUUACCUUGGUAACCAUUUCAUUUUUUAAUUUACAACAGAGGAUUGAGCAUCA` is reported as 0.957 ratio.
For `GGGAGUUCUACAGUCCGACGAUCGAUGAUAAUCACACAAACAAGUCACUGUUACAUGACCAGCCUUGGGAUUCUUUUCCUGAUUAAUAUUCUCCCUGGAACCACUGGUCAAGGGGAAUCAAGACGACAAGAACCCGGGGACUUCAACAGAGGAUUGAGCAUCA`, the bound/input enrichment was 0.154 ratio.
The bound/input enrichment of `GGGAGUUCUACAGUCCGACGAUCCCUUCAGUCUAAAAGACAUGAAAGAAGUGUAAGUAUAGCAGUUAAAACGAAAAUAAUGGUUAUGGGUGUUUUGACUGGAGGCAAUGUAGCCAAAUAGAGUAAAGAGACCCCCCUGGUCGGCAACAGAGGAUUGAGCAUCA` is reported as 5.33 ratio.
For `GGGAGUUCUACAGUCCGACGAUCCCCAAACCACCCCAGAUUCAUUAUUGUGAUGUUUGUAAGAUCAGCUGUGCUGGACCACAGACUUAUAAAGAGCACUUAGAAGGACAGAAACAUAAAAAAAAGGAAGCCGCAUUGAAAGCCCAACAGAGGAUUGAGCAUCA`, the bound/input enrichment was 1.08 ratio.

Block 3 — target: UBE2G1 UBC core domain (UniProt P62253); technique: yeast two-hybrid; medium: yeast; notes: mostly zero background; baseline: not given; reading: higher = stronger interaction
Sequence of UniProt P62253 (whole entry, looked up): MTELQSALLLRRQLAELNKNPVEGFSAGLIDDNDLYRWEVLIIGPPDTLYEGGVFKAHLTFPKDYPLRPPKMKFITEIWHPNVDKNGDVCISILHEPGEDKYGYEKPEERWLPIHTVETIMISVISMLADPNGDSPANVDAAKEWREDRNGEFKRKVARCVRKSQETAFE
B1: RNF130 RING domain (UniProt Q86XS8); chain DKETDPDFDHCAVCIESYKQNDVVRILPCKHVFHKSCVDPWLSEHCTCPMCKLNILKALGIV
B2: TRIM68 RING domain (UniProt Q6AZZ1); chain LVEAIVEEVACPICMTFLREPMSIDCGHSFCHSCLSGLWEIPGESQNWGYTCPLCRAPVQPRNLRP
B3: RNF32 RING domain (UniProt Q9H0A6); chain VQALRRETHECSICLAPLSAAGGQRVGAGRRSREMALLSCSHVFHHACLLALEEFSVGDRPPFHACPLCRSCYQKKILEC
B4: TRIM32 RING domain (UniProt Q13049); chain NLDALREVLECPICMESFTEEQLRPKLLHCGHTICRQCLEKLLASSINGVRCPFCSKITRITSLTQ
B5: RNF7 RING domain (UniProt Q9UBF6); chain AICRVQVMDACLRCQAENKQEDCVVVWGECNHSFHNCCMSLWVKQNNRCPLCQQDWVVQRIGK
B6: RNF10 RING domain (UniProt Q8N5U6); chain VRICSHEVPSCPICLYPPTAAKITRCGHIFCWACILHYLSLSEKTWSKCPICYSSVHKKDLKS
B7: TRIM2 RING domain (UniProt Q9C040); chain VRQIDKQFLICSICLERYKNPKVLPCLHTFCERCLQNYIPAHSLTLSCPVCRQTSILPEKGV
B8: NHLRC1 RING domain (UniProt Q6VVB1); chain MREAEISLLECKVCFEKFGHRQQRRPRNLSCGHVVCLACVAALAHPRTLALECPFCRRACRGCDTSD
`B1 (RNF130 RING domain)`: “lacZ reporter activity” 0.
For `B2 (TRIM68 RING domain)`, “lacZ reporter activity” read 0.
`PLRRLQEEKLCKICMDRHIAVVFIPCGHLVTCKQCAEAVDRCPMCSAVIDFKQRVF (BIRC8 RING domain (UniProt Q96P09))` — result for “lacZ reporter activity”: 0.
Under “lacZ reporter activity”, `B3 (RNF32 RING domain)` is recorded as 0.
`B4 (TRIM32 RING domain)` — result for “lacZ reporter activity”: 0.
For `B5 (RNF7 RING domain)`, “lacZ reporter activity” read 0.
Under “lacZ reporter activity”, `B6 (RNF10 RING domain)` is recorded as 0.
Under “lacZ reporter activity”, `EDVLSKDAGECAICLEELQQGDTIARLPCLCIYHKGCIDEWFEVNRSCPEHPSD (ZNRF2 RING domain (UniProt Q8NHG8))` is recorded as 0.
For `AAQLLEEKLTCAICLGLYQDPVTLPCGHNFCGACIRDWWDRCGKACPECREPFPDGAELR (TRIM65 RING domain (UniProt Q6PJ69))`, “lacZ reporter activity” read 0.
`B7 (TRIM2 RING domain)` — result for “lacZ reporter activity”: 0.
`B8 (NHLRC1 RING domain)`: “lacZ reporter activity” 0.
`GSEEEEIPFRCFICRQAFQNPVVTKCRHYFCESCALEHFRATPRCYICDQPTGGIFNPA (RNF113B RING domain (UniProt Q8IZP6))` — result for “lacZ reporter activity”: 0.
`MEEMEEELKCPVCGSFYREPIILPCSHNLCQACARNILVQTPESESPQSHRAAGSGVSDY (TRIM9 RING domain (UniProt Q9C026))`: “lacZ reporter activity” 0.

Block 4 — target: CCND1, cyclin fold, Cln2 fusion (human); technique: yeast growth competition, sequencing; medium: yeast; notes: weak parent motif; baseline: not given; reading: higher = stronger binding
Starting sequence: BRCA2 docking peptide (human); CKKRRALDFLSRL; partner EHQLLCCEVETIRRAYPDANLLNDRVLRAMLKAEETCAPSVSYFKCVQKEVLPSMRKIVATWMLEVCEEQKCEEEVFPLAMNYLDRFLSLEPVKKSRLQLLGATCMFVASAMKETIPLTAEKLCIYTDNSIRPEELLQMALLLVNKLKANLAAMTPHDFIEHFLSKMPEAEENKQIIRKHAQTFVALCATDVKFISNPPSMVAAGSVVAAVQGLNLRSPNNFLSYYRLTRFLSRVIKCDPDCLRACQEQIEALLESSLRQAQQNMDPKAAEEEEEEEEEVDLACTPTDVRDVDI
`L7A` — result for “normalised enrichment score”: 0.837.
For `F9A`, “normalised enrichment score” read 0.346.
`R12A`: “normalised enrichment score” 1.41.
Under “normalised enrichment score”, `L13A` is recorded as 0.558.
Under “normalised enrichment score”, `R5K F9L` is recorded as 0.96.
`S11A` — result for “normalised enrichment score”: 0.923.
For `R5A`, “normalised enrichment score” read 0.842.

A few entries again (block 4):
`R12A`: “normalised enrichment score” 1.41.
`S11A` — result for “normalised enrichment score”: 0.923.
Under “normalised enrichment score”, `L13A` is recorded as 0.558.
`L7A` — result for “normalised enrichment score”: 0.837.
Under “normalised enrichment score”, `R5K F9L` is recorded as 0.96.
For `R5A`, “normalised enrichment score” read 0.842.
